# Measurements pooled from the literature.
# Each numbered part is a random draw from the data of one study; scales do not carry over between parts.

# Block 1
# Target: Histone acetyltransferase KAT6A, both winged helices, GST fusion (KAT6A, Homo sapiens, UniProt Q92794, residues 1-181)
# Method: protein binding microarray
# Molecule type: double-stranded DNA, one strand shown
# Matrix: in vitro
# Concentration: not given
# Notes: 8-mer, flanks averaged, mean of 2 arrays, mostly near background
# Baseline: not given
# Direction: higher = stronger binding
# Target sequence (chain): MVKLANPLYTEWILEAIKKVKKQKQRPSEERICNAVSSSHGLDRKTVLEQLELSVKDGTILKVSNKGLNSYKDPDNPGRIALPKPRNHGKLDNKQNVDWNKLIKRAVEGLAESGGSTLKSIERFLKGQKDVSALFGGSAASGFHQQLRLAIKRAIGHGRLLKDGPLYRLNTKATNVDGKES
Sequence,E-score
CCGCTCAA,0.146
CTTGGGTA,-0.101
ATACTAGA,-0.085
ACGCGCGT,0.428
AGTAGTTA,-0.0647

# Block 2
# Target: Interferon regulatory factor 5, full length, phosphomimetic (IRF5, Homo sapiens, UniProt Q13568-2, residues 1-514, S451D/S453D/S456D/S462D)
# Method: protein-binding microarray
# Molecule type: double-stranded DNA, one strand shown
# Matrix: in vitro
# Concentration: 940 nM top
# Notes: 60-bp whole probe
# With: salmon DNA 0.4 mg/ml
# Baseline: random background probes
# Direction: higher = stronger binding
# All sequences stand within: GCCTAGCAC … GTCTTGATTCGCTTGACGCTGCTG
Sequence,fitted relative affinity
GACGGATTGGGACTGGGGACGTGCTAG,-0.334 z-score
GACGGAGTGCTACTGCTGACGTGCTAG,-0.363 z-score
GAGGATTTCAGTTTCGAGACGTGCTAG,4.51 z-score
TTAGGACTGGACACTGGGTGAGTGCTA,-0.605 z-score
TTACAACTGAGTTTCGATTAGTGCTAG,8.38 z-score

# Block 3
# Target: Sal-like protein 4, full length isoform A (SALL4, Homo sapiens, UniProt Q9UJQ4, residues 1-1053)
# UniProt Q9UJQ4, sequence (whole entry, looked up): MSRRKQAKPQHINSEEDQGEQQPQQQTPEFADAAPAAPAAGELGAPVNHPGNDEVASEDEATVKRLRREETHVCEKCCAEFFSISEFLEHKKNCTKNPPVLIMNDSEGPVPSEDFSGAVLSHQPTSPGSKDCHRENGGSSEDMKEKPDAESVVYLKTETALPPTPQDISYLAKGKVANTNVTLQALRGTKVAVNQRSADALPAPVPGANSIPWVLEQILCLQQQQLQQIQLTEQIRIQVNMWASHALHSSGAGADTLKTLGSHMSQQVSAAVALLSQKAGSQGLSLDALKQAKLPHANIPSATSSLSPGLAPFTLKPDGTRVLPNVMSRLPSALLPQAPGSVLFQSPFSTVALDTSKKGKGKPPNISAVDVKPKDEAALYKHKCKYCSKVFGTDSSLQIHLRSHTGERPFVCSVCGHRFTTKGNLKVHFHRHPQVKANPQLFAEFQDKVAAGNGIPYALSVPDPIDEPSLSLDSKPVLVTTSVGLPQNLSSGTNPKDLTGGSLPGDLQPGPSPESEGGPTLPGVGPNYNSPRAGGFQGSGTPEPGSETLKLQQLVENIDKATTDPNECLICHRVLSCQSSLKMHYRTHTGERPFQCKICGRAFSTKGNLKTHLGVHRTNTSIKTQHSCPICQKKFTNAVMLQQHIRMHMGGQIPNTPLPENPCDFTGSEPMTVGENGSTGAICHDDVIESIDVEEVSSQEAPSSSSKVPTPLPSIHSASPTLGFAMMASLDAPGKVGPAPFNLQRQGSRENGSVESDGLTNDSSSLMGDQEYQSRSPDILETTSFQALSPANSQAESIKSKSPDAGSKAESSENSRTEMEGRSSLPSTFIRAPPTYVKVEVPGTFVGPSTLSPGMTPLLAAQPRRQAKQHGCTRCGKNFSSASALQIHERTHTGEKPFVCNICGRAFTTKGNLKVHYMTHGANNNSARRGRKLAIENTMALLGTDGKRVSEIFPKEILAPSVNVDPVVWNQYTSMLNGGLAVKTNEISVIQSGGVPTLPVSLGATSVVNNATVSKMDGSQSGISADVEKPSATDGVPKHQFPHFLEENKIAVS
# Method: universal PBM
# Molecule type: double-stranded DNA, one strand shown
# Matrix: in vitro
# Concentration: 600 nM
# Notes: 8-mer, flanks averaged, mean of replicates
# Direction: higher = stronger binding
Sequence,E-score
GCTAGGGA,-0.184
AAATGCGG,-0.103
AGTGATCA,-0.0363
AAACTGGT,-0.0353
GCGGCTAC,-0.234
GCCGCCAA,-0.293

# Single results of other studies
Molecule,target,assay,system,conditions,how to read,measurement,value
"PhoQ, residues 284 288 289 292 302 303 TNSAEL","PhoP, residues 12 14 15 18 19 NIMAP (Escherichia coli, UniProt P23836)","Sort-seq, refers to: YFP reporter",E. coli,"PhoQ-PhoP variant library, with: 10 µM Mg2+","baseline: high Mg2+ state, higher = stronger signaling",fold induction,0.752

# Repeated from above (block 2):
Sequence,fitted relative affinity
GACGGATTGGGACTGGGGACGTGCTAG,-0.334 z-score
TTACAACTGAGTTTCGATTAGTGCTAG,8.38 z-score
